Measured values gathered from unrelated publications.
Numbered parts are unrelated; each lists some results of a single study. Values joined by “and” are separate records of one study, mostly repeats; a detail may differ.
Sequence of UniProt P50750 (whole entry, looked up): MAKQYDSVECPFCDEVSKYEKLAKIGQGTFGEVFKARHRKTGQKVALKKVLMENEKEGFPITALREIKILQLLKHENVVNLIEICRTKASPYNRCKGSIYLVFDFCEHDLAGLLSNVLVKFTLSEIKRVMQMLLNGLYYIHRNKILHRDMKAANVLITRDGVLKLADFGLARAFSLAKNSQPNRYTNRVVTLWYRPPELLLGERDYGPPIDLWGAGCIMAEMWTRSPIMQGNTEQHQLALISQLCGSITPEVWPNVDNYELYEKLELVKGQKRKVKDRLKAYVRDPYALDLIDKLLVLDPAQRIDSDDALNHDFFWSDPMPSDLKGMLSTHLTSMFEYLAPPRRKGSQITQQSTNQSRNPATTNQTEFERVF
Sequence of UniProt Q5S007 (whole entry, looked up): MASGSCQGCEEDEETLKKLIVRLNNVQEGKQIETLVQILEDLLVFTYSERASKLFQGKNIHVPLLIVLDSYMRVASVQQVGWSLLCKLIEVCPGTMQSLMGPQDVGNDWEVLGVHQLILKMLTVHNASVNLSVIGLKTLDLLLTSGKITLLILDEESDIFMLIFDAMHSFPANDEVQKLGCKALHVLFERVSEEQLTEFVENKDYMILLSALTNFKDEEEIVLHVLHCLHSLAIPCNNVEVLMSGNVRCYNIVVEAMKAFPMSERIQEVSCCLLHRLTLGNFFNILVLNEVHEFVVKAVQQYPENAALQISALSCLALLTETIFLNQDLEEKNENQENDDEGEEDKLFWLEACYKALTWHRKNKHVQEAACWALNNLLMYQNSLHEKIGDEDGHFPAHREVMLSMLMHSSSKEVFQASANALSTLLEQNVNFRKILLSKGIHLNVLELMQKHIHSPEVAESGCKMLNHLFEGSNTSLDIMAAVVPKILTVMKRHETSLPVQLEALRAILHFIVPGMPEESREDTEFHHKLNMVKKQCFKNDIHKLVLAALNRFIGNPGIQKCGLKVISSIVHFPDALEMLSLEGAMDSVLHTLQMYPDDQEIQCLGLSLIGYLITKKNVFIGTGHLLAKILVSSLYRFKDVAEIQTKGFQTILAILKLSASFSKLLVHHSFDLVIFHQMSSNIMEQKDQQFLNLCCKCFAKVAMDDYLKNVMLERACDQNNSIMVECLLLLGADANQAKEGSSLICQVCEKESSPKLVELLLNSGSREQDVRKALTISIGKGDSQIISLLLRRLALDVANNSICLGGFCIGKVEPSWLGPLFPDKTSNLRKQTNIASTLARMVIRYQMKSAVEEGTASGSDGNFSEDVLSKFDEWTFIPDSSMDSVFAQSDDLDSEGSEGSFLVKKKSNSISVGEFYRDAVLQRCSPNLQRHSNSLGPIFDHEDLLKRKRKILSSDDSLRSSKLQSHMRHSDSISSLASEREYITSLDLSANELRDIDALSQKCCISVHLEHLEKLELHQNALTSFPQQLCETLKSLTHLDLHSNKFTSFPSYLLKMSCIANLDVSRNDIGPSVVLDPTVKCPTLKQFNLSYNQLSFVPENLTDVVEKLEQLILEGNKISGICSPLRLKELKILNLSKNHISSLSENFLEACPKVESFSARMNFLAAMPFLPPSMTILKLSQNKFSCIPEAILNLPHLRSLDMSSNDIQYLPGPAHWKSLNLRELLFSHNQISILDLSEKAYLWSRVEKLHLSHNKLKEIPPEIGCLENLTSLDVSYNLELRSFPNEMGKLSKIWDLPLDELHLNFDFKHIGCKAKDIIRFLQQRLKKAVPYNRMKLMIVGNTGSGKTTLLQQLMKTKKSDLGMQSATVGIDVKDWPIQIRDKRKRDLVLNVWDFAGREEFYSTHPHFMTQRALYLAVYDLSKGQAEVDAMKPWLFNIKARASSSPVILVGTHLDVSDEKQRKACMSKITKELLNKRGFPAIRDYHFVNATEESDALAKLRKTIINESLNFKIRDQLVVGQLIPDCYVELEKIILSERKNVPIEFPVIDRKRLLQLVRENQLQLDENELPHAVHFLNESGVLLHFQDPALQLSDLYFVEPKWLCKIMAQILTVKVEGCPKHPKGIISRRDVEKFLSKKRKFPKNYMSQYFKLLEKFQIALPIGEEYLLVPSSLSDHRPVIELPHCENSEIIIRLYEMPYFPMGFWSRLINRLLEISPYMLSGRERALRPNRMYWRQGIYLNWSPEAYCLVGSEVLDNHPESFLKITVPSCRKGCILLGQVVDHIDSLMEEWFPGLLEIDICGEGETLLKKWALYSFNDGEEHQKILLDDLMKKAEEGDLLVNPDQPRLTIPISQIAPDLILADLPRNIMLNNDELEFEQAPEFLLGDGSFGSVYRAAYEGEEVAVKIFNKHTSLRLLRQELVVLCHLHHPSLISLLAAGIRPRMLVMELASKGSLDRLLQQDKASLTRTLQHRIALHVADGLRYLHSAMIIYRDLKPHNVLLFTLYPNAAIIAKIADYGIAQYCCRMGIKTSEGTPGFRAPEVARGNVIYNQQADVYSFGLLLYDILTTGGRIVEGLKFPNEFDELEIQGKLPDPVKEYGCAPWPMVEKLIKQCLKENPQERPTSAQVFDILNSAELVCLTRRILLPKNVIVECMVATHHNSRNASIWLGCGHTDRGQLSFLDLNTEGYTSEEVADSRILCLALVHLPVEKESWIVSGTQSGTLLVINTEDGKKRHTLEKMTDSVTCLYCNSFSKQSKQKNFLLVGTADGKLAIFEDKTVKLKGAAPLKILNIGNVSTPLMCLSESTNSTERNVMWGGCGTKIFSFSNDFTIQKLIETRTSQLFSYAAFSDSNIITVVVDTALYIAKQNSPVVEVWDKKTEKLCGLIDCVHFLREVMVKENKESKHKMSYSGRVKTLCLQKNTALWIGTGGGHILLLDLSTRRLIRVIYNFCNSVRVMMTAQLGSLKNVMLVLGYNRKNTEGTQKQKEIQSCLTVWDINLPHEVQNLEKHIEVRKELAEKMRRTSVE
Sequence of UniProt P41743 (whole entry, looked up): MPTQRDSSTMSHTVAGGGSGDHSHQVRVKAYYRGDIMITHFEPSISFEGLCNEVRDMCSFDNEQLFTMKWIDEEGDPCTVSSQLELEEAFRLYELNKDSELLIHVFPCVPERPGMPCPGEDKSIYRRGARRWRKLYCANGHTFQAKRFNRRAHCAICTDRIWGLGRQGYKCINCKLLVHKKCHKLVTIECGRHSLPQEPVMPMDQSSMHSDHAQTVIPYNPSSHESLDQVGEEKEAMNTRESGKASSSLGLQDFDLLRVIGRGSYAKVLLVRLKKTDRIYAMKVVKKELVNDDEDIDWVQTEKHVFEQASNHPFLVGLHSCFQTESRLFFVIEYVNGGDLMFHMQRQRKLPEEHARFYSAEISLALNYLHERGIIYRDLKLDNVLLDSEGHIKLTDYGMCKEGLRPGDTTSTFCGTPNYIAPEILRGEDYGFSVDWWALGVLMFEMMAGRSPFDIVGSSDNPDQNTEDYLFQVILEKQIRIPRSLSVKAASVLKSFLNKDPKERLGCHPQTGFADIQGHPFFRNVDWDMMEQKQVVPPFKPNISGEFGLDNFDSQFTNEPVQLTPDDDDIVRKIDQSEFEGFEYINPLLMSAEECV
Sequence of UniProt Q9NYY3 (whole entry, looked up): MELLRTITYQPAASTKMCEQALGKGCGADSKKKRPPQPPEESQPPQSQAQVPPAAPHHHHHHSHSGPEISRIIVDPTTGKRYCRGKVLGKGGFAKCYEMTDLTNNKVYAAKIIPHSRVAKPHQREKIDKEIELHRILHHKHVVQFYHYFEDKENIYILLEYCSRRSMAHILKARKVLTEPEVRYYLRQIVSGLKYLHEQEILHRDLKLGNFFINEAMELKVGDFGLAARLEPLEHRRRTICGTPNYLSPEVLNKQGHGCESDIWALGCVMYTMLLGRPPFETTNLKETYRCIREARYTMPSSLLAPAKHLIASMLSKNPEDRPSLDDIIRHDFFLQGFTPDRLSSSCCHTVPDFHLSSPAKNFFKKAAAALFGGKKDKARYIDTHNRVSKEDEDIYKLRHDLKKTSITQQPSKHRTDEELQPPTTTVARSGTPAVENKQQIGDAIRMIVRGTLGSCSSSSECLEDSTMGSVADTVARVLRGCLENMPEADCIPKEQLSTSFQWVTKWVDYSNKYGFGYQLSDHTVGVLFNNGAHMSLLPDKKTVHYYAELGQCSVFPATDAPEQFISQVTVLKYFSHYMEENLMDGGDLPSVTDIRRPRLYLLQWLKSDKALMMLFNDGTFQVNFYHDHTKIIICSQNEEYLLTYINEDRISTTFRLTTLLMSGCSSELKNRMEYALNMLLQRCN
Sequence of UniProt Q9NWZ3 (whole entry, looked up): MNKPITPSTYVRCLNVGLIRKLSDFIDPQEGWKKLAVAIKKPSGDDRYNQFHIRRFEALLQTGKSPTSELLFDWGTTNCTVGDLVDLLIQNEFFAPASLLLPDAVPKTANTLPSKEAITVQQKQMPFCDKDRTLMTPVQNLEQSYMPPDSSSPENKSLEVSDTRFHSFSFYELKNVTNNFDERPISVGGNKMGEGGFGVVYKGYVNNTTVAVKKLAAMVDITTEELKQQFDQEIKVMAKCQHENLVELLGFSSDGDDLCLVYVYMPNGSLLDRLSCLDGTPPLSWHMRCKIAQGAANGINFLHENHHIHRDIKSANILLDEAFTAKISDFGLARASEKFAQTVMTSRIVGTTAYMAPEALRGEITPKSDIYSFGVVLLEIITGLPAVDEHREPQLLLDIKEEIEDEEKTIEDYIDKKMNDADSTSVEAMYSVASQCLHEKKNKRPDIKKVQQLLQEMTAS
Sequence of UniProt P53778 (whole entry, looked up): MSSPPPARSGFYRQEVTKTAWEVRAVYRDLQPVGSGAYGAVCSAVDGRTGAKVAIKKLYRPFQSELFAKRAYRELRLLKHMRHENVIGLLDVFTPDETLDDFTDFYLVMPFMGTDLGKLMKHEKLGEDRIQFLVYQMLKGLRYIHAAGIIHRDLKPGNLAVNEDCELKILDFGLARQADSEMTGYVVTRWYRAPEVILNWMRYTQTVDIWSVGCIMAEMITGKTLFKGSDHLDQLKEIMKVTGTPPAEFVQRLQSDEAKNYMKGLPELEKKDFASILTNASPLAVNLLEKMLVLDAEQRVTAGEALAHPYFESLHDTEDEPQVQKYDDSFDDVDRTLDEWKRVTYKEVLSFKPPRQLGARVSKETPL

Sample 1
Structure (SMILES): CC(=O)c1ccc(N2CCOCC2)cc1O
Effect on: enzyme activity
Mode: inhibitor
Concentration: 0.5 µM
Reference: control
Endpoint: remaining activity
Protein kinase C iota type (PRKCI, Homo sapiens, UniProt P41743): 96.3%
Mitogen-activated protein kinase 12 (MAPK12, Homo sapiens, UniProt P53778): 78.7%
Leucine-rich repeat serine/threonine-protein kinase 2 (LRRK2, Homo sapiens, UniProt Q5S007): 96.1%
Serine/threonine-protein kinase PLK2 (PLK2, Homo sapiens, UniProt Q9NYY3): 104%
Cyclin-dependent kinase 9, with cyclin T1 (CDK9, Homo sapiens, UniProt P50750): 100%
Interleukin-1 receptor-associated kinase 4 (IRAK4, Homo sapiens, UniProt Q9NWZ3): 120%

Sample 2
Compound: CC(=O)N[C@@H](Cc1c[nH]c2ccccc12)C(=O)N[C@@H](CCC(=O)C=[N+]=[N-])C(=O)OC(C)C
Route: subcutaneous
Dose: 0.3 mg/kg/day DON equivalent
Time: 5 days
Direction: higher = more metabolite
Endpoint: metabolite peak area
UPLC-MS/MS, measured: thymine; C57BL/6 CES1-/- mice, EL4 tumour: 1.02e+06 a.u. and 1.61e+06 a.u. and 1.34e+06 a.u. and 1.54e+06 a.u. and 2.31e+06 a.u. and 1.21e+06 a.u.
UPLC-MS/MS metabolomics, measured: galactose 1-phosphate; EL4, C57BL/6 CES1-/- mice, EL4 tumour, tumour: 6.22e+06 a.u. and 7.26e+06 a.u. and 1.01e+07 a.u. and 4.91e+06 a.u. and 6.75e+06 a.u. and 7.47e+06 a.u.
UPLC-MS/MS, measured: xanthine; C57BL/6 CES1-/- mice, EL4 tumour: 3.56e+07 a.u. and 4.12e+07 a.u. and 5.3e+07 a.u. and 4.58e+07 a.u. and 3.47e+07 a.u. and 3.5e+07 a.u.
UPLC-MS/MS, measured: threonine; C57BL/6 CES1-/- mice, EL4 tumour: 1.64e+09 a.u. and 1.79e+09 a.u. and 1.47e+09 a.u. and 1.37e+09 a.u. and 1.17e+09 a.u. and 1.71e+09 a.u.

Single results of other studies
O=C1CCC(N2Cc3cc(C4CCN(Cc5ccccc5)CC4)ccc3C2=O)C(=O)N1 (stereo not drawn) — IL-2 level (Jurkat; 1 nM, 24 h, together with: CD3/CD28 beads, 1:4): 98.8 pg/mL and 134 pg/mL and 89.4 pg/mL
CC[C@@H](C)c1nc2cc(Nc3ccnc4ccc(S(=O)(=O)C(C)C)cc34)ccc2s1 — CC50 (L929 RIPK3 knockout; cell viability; without zVAD, 10% FBS): 52.6 µM
